Published values of several laboratories.
Lines come from different studies, so protocols differ. Several values in a cell are separate wells, animals, samples, runs or records.
Target: 5-hydroxytryptamine receptor 2B (HTR2B, Homo sapiens, UniProt P41595)

CN[C@@H]1[C@H](O)[C@H](NC)[C@H]2O[C@]3(O)[C@H](O[C@@H]2[C@H]1O)O[C@H](C)C[C@H]3NC(=O)Cc1cc(Cl)ccn1 — inhibition (ligand displacement, radioligand; 10 µM): -12%
Cc1cc(Nc2nc(C[C@@]3(C(=O)O)CCN(Cc4cccc(Cl)c4F)[C@H](C)C3)cc(C)c2F)[nH]n1 — activation (agonist; 10 µM): -0.81%
Cc1sc2c(c1C)C(c1ccc(Cl)cc1)=NC(CC(=O)OC(C)(C)C)c1nnc(C)n1-2 (centres unmarked) — inhibition (ligand displacement, radioligand; 1 µM): -1%
Cc1cc(-c2ccc3ccccc3c2)nnc1NCCN1CCN(C)CC1 — activity (antagonist; 10000 nM; reference: control): 2%
COc1ccc(F)cc1S(=O)(=O)Nc1cnc2c(c1)C(=O)NCCO2 — inhibition (ligand displacement, radioligand; 10 µM): 14%
COc1ccccc1N1CCN(CCCCN2CCCc3ccccc3C2=O)CC1 — inhibition (radioligand binding; concentration not given, added: [3H]LSD): 85.2%
O[C@H]1[C@H](n2cnc3c(N[C@@H](C4CCC4)C4CC4)nc(I)nc32)[C@H]2C[C@@]2(C(F)F)[C@H]1O — selectivity ratio (antagonist, calcium flux; added: 5-HT; reference: 5-HT2C over 5-HT2B): 724 fold
CCc1nnc(-c2c(OC)cc(-c3cnc4cc(-c5cnn(C)c5)ccn34)cc2OC)o1 — inhibition (agonist radioligand, radioligand binding; 10 µM, SafetyScreen44 5-HT2B): 11%
O=C1c2ccccc2CCCN1CCCCN1CCN(c2cccc(Cl)c2Cl)CC1 — inhibition (radioligand binding; concentration not given, added: [3H]LSD): 85.3%
O=C(O)c1ccc(-c2nc(-c3ccccc3Cl)c3sccn23)cc1 — specific binding (radioligand binding, safety screen panel; 10 µM; reference: control): 93.3% and 93.4%
N[C@H](C(=O)N1CCCC1)C1CCN(c2nccc3c(-c4ncc(Cl)cc4Cl)cccc23)CC1 — response (functional response, agonist; 10 µM): 4%
CCN(CC)CCOc1ccc(-c2nnn(Cc3ccc(OC)cc3)c2N)cc1 — inhibition (radioligand binding; CHO-K1; 10 µM, safety profiling): 19.8%
CCOC(=O)[C@](CC)(CCCSCCOCCOCCNC(=O)c1ccc(-c2c3ccc(=N)c(S(=O)(=O)O)c-3oc3c(S(=O)(=O)O)c(N)ccc23)c(C(=O)O)c1)NC(=O)c1ccc(C2CC2)c(Cc2ccc(F)cc2)n1 — inhibition (ligand displacement, radioligand; 10 µM): 2%
CS(C)(=O)=Nc1ccc(-c2ccc(-c3nc4cc(O[C@@H]5CO[C@H]6[C@@H]5OC[C@H]6O)[nH]c4cc3F)cc2)cc1 — inhibition (calcium signal, antagonist; 10 µM): 43%

Excerpt of the above:
Cc1sc2c(c1C)C(c1ccc(Cl)cc1)=NC(CC(=O)OC(C)(C)C)c1nnc(C)n1-2 (centres unmarked) — inhibition (ligand displacement, radioligand; 1 µM): -1%
